Measured values gathered from unrelated publications.
Every numbered part comes from another study and shows a few of its results, in no order.

Series 1
Target: Sal-like protein 4, full length isoform A (SALL4, Homo sapiens, UniProt Q9UJQ4, residues 1-1053)
Sequence of UniProt Q9UJQ4 (whole entry, looked up): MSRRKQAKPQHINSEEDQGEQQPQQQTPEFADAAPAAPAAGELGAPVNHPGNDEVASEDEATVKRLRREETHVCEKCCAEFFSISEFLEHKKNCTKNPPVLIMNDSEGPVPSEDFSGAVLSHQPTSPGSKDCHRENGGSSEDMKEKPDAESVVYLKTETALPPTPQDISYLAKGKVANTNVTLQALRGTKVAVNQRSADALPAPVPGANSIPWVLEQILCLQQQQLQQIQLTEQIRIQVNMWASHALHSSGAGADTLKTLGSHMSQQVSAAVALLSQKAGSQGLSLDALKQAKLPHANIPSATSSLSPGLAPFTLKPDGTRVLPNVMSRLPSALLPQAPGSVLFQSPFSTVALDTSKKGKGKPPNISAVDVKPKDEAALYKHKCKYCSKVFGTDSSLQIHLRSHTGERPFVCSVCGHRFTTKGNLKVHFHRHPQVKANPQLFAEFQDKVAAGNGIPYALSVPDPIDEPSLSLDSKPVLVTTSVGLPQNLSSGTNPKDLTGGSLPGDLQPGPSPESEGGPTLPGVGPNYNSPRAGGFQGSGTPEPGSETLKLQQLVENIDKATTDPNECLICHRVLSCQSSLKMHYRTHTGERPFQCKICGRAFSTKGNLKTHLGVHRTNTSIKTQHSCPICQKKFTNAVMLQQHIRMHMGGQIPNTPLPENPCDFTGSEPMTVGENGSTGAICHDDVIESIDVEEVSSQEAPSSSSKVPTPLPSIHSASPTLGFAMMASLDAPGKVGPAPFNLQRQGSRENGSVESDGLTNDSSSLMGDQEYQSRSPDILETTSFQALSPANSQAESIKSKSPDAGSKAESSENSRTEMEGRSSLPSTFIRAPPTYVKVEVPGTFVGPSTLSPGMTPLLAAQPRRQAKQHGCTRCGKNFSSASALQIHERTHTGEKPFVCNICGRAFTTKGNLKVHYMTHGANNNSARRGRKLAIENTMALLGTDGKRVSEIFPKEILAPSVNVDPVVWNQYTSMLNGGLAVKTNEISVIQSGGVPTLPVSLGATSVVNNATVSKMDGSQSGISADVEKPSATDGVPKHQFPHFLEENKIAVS
Method: universal PBM
Form: double-stranded DNA, one strand shown
Matrix: in vitro
Concentration: 600 nM
Notes: 8-mer, flanks averaged, mean of replicates
Reading: higher = stronger binding
Quantity: E-score
GTCTGTAA: 0.102
CTTAAAAG: 0.108
CAATGACA: 0.129
CAGGCCGG: -0.355
ACCAAGGC: -0.247
GCTTTGAA: 0.194
ATGCTGCA: -0.0268
ACCCGTGA: -0.205
GTACGGAA: -0.0476
CGAAGTCC: -0.127
AATACCAA: 0.261
CGGGTCTC: -0.418
CGCAAGAA: -0.212
CAGCTTGC: -0.205
CTGCGAAC: -0.119
CACTTCAG: -0.0445
AGGTGGCG: -0.26
CACAATAA: 0.277
CTTGACCA: 0.00615
ATCCCCGC: -0.286
AGGCATTA: 0.0278
AATTGACA: 0.177
TAGGAATA: 0.281
ATGTTTCC: 0.0508
ACTAATCC: 0.16

Series 2
Target: Histone acetyltransferase KAT6A, winged helix 1, GST fusion (KAT6A, Homo sapiens, UniProt Q92794, residues 1-85)
Method: protein binding microarray
Form: double-stranded DNA, one strand shown
Matrix: in vitro
Concentration: not given
Notes: 8-mer, flanks averaged, mean of 2 arrays, mostly near background
Baseline: not given
Reading: higher = stronger binding
Quantity: E-score
Construct (chain): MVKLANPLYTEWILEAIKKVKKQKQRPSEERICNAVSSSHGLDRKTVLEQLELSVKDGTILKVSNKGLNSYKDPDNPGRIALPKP
CACGGTCG: 0.196
CATGCAAA: -0.065
CTACCAAA: -0.0398
AGTAGGAG: -0.266
GACAAATC: -0.0412
GACATCGA: -0.00652
GGTGGAAA: -0.145
ACCGCTAT: 0.17
CCCATCTA: 0.0105
TACGTAGA: -0.0614
GAACGCCA: -0.0541
CTTCGTCA: -0.0736
GCTCAGAC: -0.155
CCAACATA: -0.0568
AGTTATGA: -0.109
CGCCAACA: 0.0515

Series 3
Target: Ras GTPase-activating protein-binding protein 1, RRM domain (G3BP1, Homo sapiens, UniProt Q13283)
Sequence of UniProt Q13283 (whole entry, looked up): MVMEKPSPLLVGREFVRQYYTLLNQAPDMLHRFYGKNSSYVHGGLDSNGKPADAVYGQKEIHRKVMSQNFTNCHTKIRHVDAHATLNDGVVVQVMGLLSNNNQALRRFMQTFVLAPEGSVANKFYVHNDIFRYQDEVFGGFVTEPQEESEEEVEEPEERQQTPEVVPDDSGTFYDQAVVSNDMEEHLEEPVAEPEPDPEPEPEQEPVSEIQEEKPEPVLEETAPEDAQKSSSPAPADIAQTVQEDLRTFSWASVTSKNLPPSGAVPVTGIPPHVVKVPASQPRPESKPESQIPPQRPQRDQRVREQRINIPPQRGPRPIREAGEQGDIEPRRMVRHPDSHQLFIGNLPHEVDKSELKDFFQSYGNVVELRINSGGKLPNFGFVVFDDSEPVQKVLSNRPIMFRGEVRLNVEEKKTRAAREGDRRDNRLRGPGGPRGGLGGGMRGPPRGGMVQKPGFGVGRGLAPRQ
Method: RNA Bind-n-Seq
Form: RNA
Matrix: in vitro
Concentration: 1 µM
Notes: whole 134-nt RNA, ends assumed
Added: 150 mM KCl
Baseline: input library
Reading: higher = stronger binding
Quantity: log2 enrichment
Constant ends, left off below: GGGAGUUCUACAGUCCGACGAUC … UGGAAUUCUCGGGUGUCAAGG
UGUGCUACACAUCGUAUGUACCGAAUCGGGGCCCCCCCGGGGCCCCCCCGGCCCCCCCGGGGAAAGUAUUAUGUUACGCCGUUCGGAUCU: -0.639
UCAAGUCCUGUGCUACACAUCGUAUGUACCGAAUCGGAAAAAAAGGUUUGGAGGAAAGUAUUAUGUUACGCCGUUCGGAUCUGCACUUCC: -0.206
CCUCAGUGUCAUUUAUGAAAAGAGGGGACCAGAAGCCAAAGACUUAGUAUAUUUUCUUUUCCUCUGUCCCUUCCCCCAUAAGCCUCCAUU: -0.209
CACAGACAACACGCACCCACACAGACACAGUGGGAAGGGGUUGGGAUGGGGACAGGGUGCACAGCAGGGCGGGGUAGGACCCCAGCCCCU: 0.644
UCAAGUCCUGUGCUACACAUCGUAUGUACCGAAUCGGGUUGGGGUUGGGGUUGGAAAGUAUUAUGUUACGCCGUUCGGAUCUGCACUUCC: -0.0444
UAGUGAUGGUCCUAAAUAGCAUGAGUGUCAGCUGGAGCGCCCGGAUCCAGAUUUUCUUAACCUUUUGCAAGCUCACAGCAAUUCUGAUAA: -0.129
AAGUCCUGUGCUACACAUCGUAUGUACCGAAUCGGGAAAAGGGAAAAGGGAAAAGGAAAGUAUUAUGUUACGCCGUUCGGAUCUGCACUU: -0.104
CAAGUCCUGUGCUACACAUCGUAUGUACCGAAUCGGUUUUUUUGGAAAGGUUUGGAAAGUAUUAUGUUACGCCGUUCGGAUCUGCACUUC: -0.44
UGGGAGGUGGAUUUUGUUUAUUUUUUUAGCUCAGUUCCAGGGGUGGGAAUUUUUUUUUAAUAUGUGUCAUGAAUAAAGUUGUUUUUGAAA: 1.42
ACCAUGCAGGUGGGCAUCUUUGGGAAGUGGGGCAAGGGGGGGAUAGGGAGGUGGGUAACACUUUGGGAACAGGUGGUCCCAGGUCGUUUC: 0.621
UCCUGUGCUACACAUCGUAUGUACCGAAUCGGGGUUUUUUGGUUUUUUGGGUUUUUUGGAAAGUAUUAUGUUACGCCGUUCGGAUCUGCA: -0.0607
AAGUCCUGUGCUACACAUCGUAUGUACCGAAUCGGGGAAAGGGGAAAGGGGUGGGGAAAGUAUUAUGUUACGCCGUUCGGAUCUGCACUU: 1.01
UUGUGGGAGGAUUUUGAGAUACUUAUUCUUUAUUUGAGCCAGUCUUGCAAGGUUAACUUCUCACUGGGCCUAGUGUGGUGCCCAGGUUUU: -0.429
AAGUCCUGUGCUACACAUCGUAUGUACCGAAUCGGGGCCCGGGGCCCGGGCCCGGGAAAGUAUUAUGUUACGCCGUUCGGAUCUGCACUU: -0.86

Series 4
Target: Interferon regulatory factor 7, full length, phosphomimetic (IRF7, Homo sapiens, UniProt Q92985, residues 1-503, S471D/S472D/S475D/S476D/S477D/S483D/S484D/S487D)
Method: protein-binding microarray
Form: double-stranded DNA, one strand shown
Matrix: in vitro
Concentration: 2200 nM top
Notes: 60-bp whole probe
Added: salmon DNA 0.4 mg/ml
Baseline: random background probes
Reading: higher = stronger binding
Quantity: fitted relative affinity
Constant ends, left off below: GCCTAGCAC … GTCTTGATTCGCTTGACGCTGCTG
Residues (chain): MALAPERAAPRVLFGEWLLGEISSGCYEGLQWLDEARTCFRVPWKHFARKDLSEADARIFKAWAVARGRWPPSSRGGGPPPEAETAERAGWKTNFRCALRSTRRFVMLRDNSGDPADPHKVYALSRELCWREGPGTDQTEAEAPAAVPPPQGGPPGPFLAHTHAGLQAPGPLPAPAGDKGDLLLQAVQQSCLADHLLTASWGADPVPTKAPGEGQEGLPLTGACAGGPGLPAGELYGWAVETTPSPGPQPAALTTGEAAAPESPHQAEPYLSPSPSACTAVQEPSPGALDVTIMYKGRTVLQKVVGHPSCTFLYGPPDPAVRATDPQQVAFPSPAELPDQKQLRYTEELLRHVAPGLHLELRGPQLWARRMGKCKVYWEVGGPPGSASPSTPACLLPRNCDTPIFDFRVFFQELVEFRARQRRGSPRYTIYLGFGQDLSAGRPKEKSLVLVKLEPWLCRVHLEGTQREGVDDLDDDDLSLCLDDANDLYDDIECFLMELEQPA
TTAGGTACCGGACTGGGTTAGTGCTAG: -0.566 z-score
GCTCATCTGTCATGTTTGTCAGTGCTA: 1.31 z-score
GACGATCTCAGTATCGAGGCGTGCTAG: 0.0287 z-score
GACGAATTGAGACTGGAGACGTGCTAG: -0.169 z-score
TCACCTTACTTTATGTAACTGTGCTAG: 1.55 z-score
CTGTCTGAGGACACCCTGGCGTGCTAG: -0.185 z-score
TTACTTCCCAATAATCTTTTCGTGCTA: 1.88 z-score
GCACGTGACTGTTTCCCAATGTGCTAG: 1.41 z-score
GACGGTAACGACACTGGGGACGTGCTA: -0.72 z-score
GACGATTTCAATCTCGAGACGTGCTAG: 0.514 z-score
CTCATTCGTCATTTCACAGTGTGCTAG: 2.38 z-score
TTAGATATCGGGACGGGATTAGTGCTA: -0.296 z-score
GACGGTAGCGGGTTTCGGGACGTGCTA: 0.707 z-score
TTAGGTCTCGACTTTCGGTTAGTGCTA: 5.74 z-score
TAAGGTCTCCTACTGCTTTAGTGCTAG: 0.435 z-score
TCATTTTTTTTTTTGTAACTGTGCTAG: 2 z-score
TCATTTCTAAAACTCTTACTGTGCTAG: 1.19 z-score
GACGGTAGCGGGTATCGGGACGTGCTA: -0.813 z-score
AACTTTTTTTAATTGAGAAGGTGCTAG: -0.509 z-score
TTCGTTTTGTGTCTGGGCATGTGCTAG: 2.79 z-score
TCAGGTCTCGCTTCATCACTGTGCTAG: 1.94 z-score
GACGATCTCAGCCTGGAGACGTGCTAG: -0.164 z-score
GACGGTCTCGGTATCGGGGCGTGCTAG: 0.319 z-score
GACGATTTCAGTTTCTAGACGTGCTAG: 3.22 z-score
GACGGTCTCGGTTTCGGGTCGTGCTAG: 6.86 z-score

Series 5
Target: Hepatocyte nuclear factor 3-beta, forkhead domain (FOXA2, Homo sapiens, UniProt Q9Y261, residues 142-269)
Method: protein-binding microarray
Form: double-stranded DNA, one strand shown
Matrix: in vitro
Concentration: not given
Notes: k-mer, scored over probes, only values ≥0.25
Reading: higher = stronger binding
Quantity: E-score
Target sequence (chain): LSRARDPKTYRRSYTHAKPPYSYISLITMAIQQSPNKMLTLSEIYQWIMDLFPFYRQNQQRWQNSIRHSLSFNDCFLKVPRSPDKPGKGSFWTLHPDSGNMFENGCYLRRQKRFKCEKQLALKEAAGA
TATGAAAA: 0.268
ACAACATA: 0.35
ATAATTCG: 0.256
ATCATTAC: 0.258
GGTAACAA: 0.317
CATATCAC: 0.256
CACAGTTA: 0.301
ATTACCAA: 0.281
GGGTACTA: 0.253
GGATAGTA: 0.276
AGTATACG: 0.279
CAATATCG: 0.281
GCATATAA: 0.253
CTATTATA: 0.333
ATACATTG: 0.306
CTACCACA: 0.253
ATTATGTA: 0.33
ACAATCCA: 0.284
TGGTATAA: 0.364
GATCAACA: 0.317
ATAGGAAA: 0.271
ATTACACA: 0.253
ATCAACTA: 0.255
TGTATTAA: 0.325
CAGTAATA: 0.34

Series 6
Target: RNA binding protein fox-1 homolog 2, RRM domain, GST-SBP tag (RBFOX2, Homo sapiens, UniProt O43251-10, residues 100-194)
Method: RNA Bind-n-Seq
Form: RNA
Matrix: in vitro
Concentration: 365 nM
Notes: natural RNA segment, single round, ends assumed
Baseline: no-protein control
Reading: higher = stronger binding
Quantity: RBNS enrichment (R)
Constant ends, left off below: GGGAGUUCUACAGUCCGACGAUC … UGGAAUUCUCGGGUGCCAA
Target sequence (chain): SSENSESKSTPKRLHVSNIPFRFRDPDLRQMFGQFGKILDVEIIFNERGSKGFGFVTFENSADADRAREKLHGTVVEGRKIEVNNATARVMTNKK
AUCCCAGGUGCGGUUUCCCUUGCACUAGGCCGAACCUAUAGUAUAGAAAUAUUAUCUAUUUUAUUACCUUGAAUAUUUAAUAUUUUUCACUGGGAGGUUUGAAGCUUACA: 0.417
UAAAAGAUACAUUCUCAUUGUUUUCCAACAGUGAUGGCUUCCACAUAAGGUUAAACAAACUAGGUGCUUGUAAAUAAUUUAUUACAGUUUACUCUAUCGCAUUUCUGUAA: 0.405
UACUGGUAAAAUGGAAAUACUUCACAGAGUGAAUAAAGAAUACUUUUUUUUUUGUAAAUGUUCUGUAAAGAAAAAAUGUACAGUAAAUAAAGUGUUUUAUUUGUAGACUG: 0.496
AUGAAAUAAAUAAAUCUUAAAAAAAAAAAUAAGGUGUUAACAUGAGAAGAGGCGCUUCAAGCUCUUCUAAGCCUUGAUGGUGUCUCCCUUUAGGCAAAGAUCUGAAAUAU: 0.43
AGUCAUGGCAAAUAGAAUUGGGCUGGGGUUUCUCCUUCUUUUCAGUUCAUUGUUUGCCCUGCUAGGAAUUAGAAGACAGACACCAUGUCCCAGGACAGUGUUACUUCUUC: 0.588
GUGAAUAAAGUUAUGUUCAGAUAGUUUGUACAGAAAAAAUAAUAAUAAAAUGGAUGCCCUUCAUGUUUUAUUGCUAUUACUAAAUGUCAAGAUUGUAUGCUAUUAUGUCU: 0.498
UCACCAGAUGGGCUUCCAUUCACCUUCGGACCCAGGGCCUCCAAGCCACACAGCUAUUCUUUGGCCAGACCCUCACUACAGUAACUCAUCAACUCUGGCUCUUGUAGGGG: 0.588
AUAGUGUUCACAAACUGUGAAAAUAGUGUAAGAACUGUACAUUGUGAGCUCUGGUUAUUUUUCUCUUGUACCAUAUGAAAGUAUAUAAAAAUUAUCAAAAAGCUGAUGUG: 0.434
UAGAGUCACUGACCCUGGAGCGGCUCUCCUGAGAGGUGCUGCAGGCAAAGUGAGACUGACACCUCACUGAGGAAGGGAGACAUAUUCUUGGAGAACUUUCCAUCUGCUUG: 0.584
GCCCACCGAGGACUACAUGAGCCAUAUCAUUGAGAAGUGUAGUAGUGUCAGGGGCAGAGAGUGAUGGGCACGAUUUAACAGGGAAAGAAAUGGGGCCAACAGUUCUUCCU: 0.337
AUAAUUAUGAGUAAACCCGGUCCUUUCGAUGUUUAGAGUAAGCAGAGGCCCACAGUGGAGGCUUACCAAAGGUUGCAAUGAGGAAGAGGCCUCUCCCUCACUGUCAGCAC: 0.402
ACAUUUCUGGAUCCAGGCCAGGUGAAGAUUAGGGCCAGGAAGCCUGAGCCCCCGGGGCCUCAAGGUAGGGAGCCGAAGAGGCUGCCAGGACUCUGCUGGGUUGAAAUUUG: 0.598

For quick reference, copied from above (series 2):
GACATCGA: -0.00652
GACAAATC: -0.0412
CCCATCTA: 0.0105
GCTCAGAC: -0.155
TACGTAGA: -0.0614
GGTGGAAA: -0.145
CTTCGTCA: -0.0736
CATGCAAA: -0.065
CTACCAAA: -0.0398
